Measured values of several laboratories.
A part holds a random share of what one study measured. Changes are numbered by the printed parent chain.

Sample 1
Target: JUND, bZIP domain (human)
Method: DHFR protein complementation
Sample: yeast
Notes: single substitutions, most at no-binding floor
Baseline: wild-type JUN-FOS pair
Direction: higher = stronger binding
Starting sequence: JUN, bZIP domain (human); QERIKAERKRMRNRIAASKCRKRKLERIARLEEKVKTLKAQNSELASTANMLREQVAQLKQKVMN
| Substitution | binding fitness [natural log] |
| --- | --- |
| R53C | -1.39 |
| T48W | -1.34 |
| L31T | -1.39 |
| L52P | -1.39 |
| V56K | -1.31 |
| E32P | -1.46 |
| L45T | -1.49 |
| E32H | -1.21 |

Sample 2
Target: PABPC1L2, full length, GST fusion (mouse, UniProt A0ABA7IW68)
Method: RNAcompete
Molecule type: RNA
Sample: in vitro
Tested at: 20 nM
Notes: 7-mer, probes averaged, single round
Baseline: mean of 7-mers
Direction: higher = stronger binding
Residues (chain): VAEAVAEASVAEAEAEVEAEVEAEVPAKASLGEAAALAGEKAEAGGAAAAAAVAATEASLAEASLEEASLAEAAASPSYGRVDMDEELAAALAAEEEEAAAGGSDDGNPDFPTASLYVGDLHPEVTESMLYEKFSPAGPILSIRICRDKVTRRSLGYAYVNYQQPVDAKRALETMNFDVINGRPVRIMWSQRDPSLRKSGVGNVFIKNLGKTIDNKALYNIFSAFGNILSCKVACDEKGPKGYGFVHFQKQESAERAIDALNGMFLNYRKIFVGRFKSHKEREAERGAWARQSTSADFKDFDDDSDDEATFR
| Oligonucleotide | 7-mer Z-score |
| --- | --- |
| CUAUGCG | -0.0917 |
| GCGCUGU | -0.266 |
| GUGCAAA | 0.619 |
| AGAGAAU | 0.0279 |
| UUACGAU | -0.103 |
| CACUGAG | 0.193 |
| CCGCAUA | -0.148 |
| ACUAAAU | 0.693 |

Further values, each from its own experiment
P1: PafA, mature enzyme, eGFP fusion (Elizabethkingia meningoseptica, UniProt Q9KJX5); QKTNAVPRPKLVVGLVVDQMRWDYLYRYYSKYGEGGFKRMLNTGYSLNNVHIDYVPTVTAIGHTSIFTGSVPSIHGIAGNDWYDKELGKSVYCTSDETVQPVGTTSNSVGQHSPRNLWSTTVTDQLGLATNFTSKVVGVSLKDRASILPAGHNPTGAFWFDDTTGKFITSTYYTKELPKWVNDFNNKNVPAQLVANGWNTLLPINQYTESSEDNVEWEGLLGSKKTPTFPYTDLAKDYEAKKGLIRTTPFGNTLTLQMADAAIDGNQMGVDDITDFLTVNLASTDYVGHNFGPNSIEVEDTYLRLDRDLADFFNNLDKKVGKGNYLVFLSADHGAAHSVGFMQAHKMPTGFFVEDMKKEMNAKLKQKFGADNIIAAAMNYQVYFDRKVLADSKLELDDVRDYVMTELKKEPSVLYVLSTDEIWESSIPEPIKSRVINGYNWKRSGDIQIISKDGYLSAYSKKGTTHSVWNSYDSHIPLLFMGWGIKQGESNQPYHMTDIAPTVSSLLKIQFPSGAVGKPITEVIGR
| Substance | tested on | assay | test system | setting | how to read | measurement | result |
| --- | --- | --- | --- | --- | --- | --- | --- |
| REV3L (Homo sapiens, UniProt O60673) | ATP5F1A (Homo sapiens, UniProt P25705) | cross-linking MS | cell fractions | added: DSSO |  | cross-linked residues | T2480 to K305 |
| P1 P114V | tungstate, free oxyanion | microfluidic competitive inhibition | in vitro, cell-free expressed | not given, derived from inhibition constants, unchanged parent 2230 nM | lower = stronger binding | oxyanion analog dissociation constant | 2.37 µM |
| H1-2 (Homo sapiens, UniProt P16403) | EP400 (Homo sapiens, UniProt Q96L91) | cross-linking MS | cell fractions | added: DSSO |  | cross-linked residues | K148 to K908 |
| HNRNPDL (Homo sapiens, UniProt O14979) | EIF4B (Homo sapiens, UniProt P23588) | cross-linking MS | cell fractions | added: DSSO |  | cross-linked residues | K142 to S88 |
| PIK3C2B (Homo sapiens, UniProt O00750) | CNGA3 (Homo sapiens, UniProt Q16281) | cross-linking MS | cell fractions | added: DHSO |  | cross-linked residues | E1130 to E292 |

Some of these lines once more (further values, each from its own experiment):
| Substance | tested on | assay | test system | setting | how to read | measurement | result |
| --- | --- | --- | --- | --- | --- | --- | --- |
| HNRNPDL (Homo sapiens, UniProt O14979) | EIF4B (Homo sapiens, UniProt P23588) | cross-linking MS | cell fractions | added: DSSO |  | cross-linked residues | K142 to S88 |
| PIK3C2B (Homo sapiens, UniProt O00750) | CNGA3 (Homo sapiens, UniProt Q16281) | cross-linking MS | cell fractions | added: DHSO |  | cross-linked residues | E1130 to E292 |
